Published values pooled from the literature.
Compare with care: the assays were run in different laboratories.
Chain of UniProt Q00532 (whole entry, looked up): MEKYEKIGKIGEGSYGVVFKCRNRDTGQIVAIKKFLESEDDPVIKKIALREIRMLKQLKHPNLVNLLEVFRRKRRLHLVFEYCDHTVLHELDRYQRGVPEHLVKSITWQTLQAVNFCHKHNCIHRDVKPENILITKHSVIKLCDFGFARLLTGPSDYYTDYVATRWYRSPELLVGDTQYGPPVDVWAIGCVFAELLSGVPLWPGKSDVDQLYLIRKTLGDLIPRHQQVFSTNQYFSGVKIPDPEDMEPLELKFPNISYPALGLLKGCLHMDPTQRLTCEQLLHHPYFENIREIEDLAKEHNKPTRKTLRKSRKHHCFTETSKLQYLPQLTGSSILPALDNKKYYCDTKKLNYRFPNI
Chain of UniProt P10721 (whole entry, looked up): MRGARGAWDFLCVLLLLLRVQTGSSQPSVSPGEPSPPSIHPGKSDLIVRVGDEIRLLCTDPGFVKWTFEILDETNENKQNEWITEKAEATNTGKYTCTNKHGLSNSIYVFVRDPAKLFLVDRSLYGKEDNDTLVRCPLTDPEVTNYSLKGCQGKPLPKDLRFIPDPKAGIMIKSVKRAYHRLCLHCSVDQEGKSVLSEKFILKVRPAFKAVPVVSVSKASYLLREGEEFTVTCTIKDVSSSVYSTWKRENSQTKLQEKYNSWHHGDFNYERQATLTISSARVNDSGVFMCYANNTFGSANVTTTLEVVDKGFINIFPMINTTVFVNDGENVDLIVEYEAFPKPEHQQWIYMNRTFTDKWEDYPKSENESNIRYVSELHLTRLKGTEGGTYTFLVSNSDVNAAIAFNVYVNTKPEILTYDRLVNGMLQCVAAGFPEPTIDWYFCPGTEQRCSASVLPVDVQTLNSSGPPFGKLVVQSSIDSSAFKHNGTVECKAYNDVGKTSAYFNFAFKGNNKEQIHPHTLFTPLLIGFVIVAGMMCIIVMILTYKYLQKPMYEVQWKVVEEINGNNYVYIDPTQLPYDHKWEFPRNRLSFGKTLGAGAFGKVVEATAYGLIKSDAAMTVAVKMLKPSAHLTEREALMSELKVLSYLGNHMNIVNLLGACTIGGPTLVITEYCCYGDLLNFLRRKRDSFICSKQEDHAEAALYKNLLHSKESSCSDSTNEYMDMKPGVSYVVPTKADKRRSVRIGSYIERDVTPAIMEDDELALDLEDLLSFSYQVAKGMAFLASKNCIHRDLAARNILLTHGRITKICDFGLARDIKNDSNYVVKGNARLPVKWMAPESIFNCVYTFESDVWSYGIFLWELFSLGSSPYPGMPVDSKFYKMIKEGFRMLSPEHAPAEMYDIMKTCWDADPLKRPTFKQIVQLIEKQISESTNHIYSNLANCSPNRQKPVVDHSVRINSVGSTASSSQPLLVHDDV
Chain of UniProt P31152 (whole entry, looked up): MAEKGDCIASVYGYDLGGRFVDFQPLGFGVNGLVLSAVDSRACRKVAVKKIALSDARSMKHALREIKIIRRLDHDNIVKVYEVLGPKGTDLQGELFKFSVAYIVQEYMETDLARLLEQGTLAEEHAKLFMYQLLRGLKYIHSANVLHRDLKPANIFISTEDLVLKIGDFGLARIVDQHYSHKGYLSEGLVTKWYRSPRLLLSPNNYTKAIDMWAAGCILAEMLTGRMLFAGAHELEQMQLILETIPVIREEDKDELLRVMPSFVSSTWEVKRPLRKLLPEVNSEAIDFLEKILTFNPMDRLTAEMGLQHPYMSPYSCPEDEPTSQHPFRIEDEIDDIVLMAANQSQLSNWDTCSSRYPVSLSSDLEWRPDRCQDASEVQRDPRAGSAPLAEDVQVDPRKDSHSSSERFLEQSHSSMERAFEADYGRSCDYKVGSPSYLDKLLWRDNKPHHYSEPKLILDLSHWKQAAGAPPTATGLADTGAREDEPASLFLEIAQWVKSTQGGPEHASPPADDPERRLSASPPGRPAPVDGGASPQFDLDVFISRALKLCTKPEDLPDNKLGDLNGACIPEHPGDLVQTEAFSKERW
Chain of UniProt Q9H422 (whole entry, looked up): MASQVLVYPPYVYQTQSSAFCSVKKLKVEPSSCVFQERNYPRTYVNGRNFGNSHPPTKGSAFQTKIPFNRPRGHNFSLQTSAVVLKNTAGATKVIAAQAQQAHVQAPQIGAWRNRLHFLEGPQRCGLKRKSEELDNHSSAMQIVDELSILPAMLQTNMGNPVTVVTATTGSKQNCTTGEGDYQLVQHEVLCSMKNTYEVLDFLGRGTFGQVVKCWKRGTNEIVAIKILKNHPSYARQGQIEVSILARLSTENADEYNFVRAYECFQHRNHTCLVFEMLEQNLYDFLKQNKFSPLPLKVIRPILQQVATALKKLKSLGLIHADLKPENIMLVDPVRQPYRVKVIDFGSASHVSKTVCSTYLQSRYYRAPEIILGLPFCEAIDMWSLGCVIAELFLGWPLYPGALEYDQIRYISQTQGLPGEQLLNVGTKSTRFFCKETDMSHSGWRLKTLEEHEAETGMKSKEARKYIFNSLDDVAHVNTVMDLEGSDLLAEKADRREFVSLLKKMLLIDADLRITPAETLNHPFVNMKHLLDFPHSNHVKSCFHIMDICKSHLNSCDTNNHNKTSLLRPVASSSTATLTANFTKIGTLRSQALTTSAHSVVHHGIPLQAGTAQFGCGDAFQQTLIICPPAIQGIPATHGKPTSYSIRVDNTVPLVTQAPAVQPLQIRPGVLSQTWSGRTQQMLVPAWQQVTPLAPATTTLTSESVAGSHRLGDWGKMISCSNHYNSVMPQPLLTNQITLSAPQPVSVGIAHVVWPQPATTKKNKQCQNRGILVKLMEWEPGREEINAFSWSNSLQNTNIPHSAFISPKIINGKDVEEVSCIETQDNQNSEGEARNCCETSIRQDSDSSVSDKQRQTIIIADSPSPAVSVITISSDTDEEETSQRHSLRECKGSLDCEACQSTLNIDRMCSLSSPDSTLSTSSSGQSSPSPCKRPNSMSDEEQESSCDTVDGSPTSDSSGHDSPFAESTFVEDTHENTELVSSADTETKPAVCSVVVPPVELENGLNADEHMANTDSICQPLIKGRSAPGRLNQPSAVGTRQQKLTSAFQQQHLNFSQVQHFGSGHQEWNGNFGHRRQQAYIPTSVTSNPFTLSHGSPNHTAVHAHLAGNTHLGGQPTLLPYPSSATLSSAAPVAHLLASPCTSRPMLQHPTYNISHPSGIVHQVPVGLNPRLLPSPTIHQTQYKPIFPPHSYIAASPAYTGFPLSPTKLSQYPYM

| Structure (SMILES) | tested on | test | test system | setting | endpoint | result |
| --- | --- | --- | --- | --- | --- | --- |
| CCC(CC)COC(=O)[C@H](C)N[P@](=O)(OC[C@H]1O[C@@](C#N)(c2ccc3c(N)ncnn23)[C@H](O)[C@@H]1O)Oc1ccccc1 | Vero | cell growth or viability |  |  | CC50 | > 100 µM |
| [2H]c1c([2H])c([C@]2([2H])CCCN2C(=O)C(C)(C)Oc2ccc3cn[nH]c3c2)c([2H])c([2H])c1C([2H])([2H])[2H] | HIPK3 (Homo sapiens, UniProt Q9H422) | binding, competition with immobilised ligand |  | 1 µM | remaining binding | 97% |
| C[C@]12CC[C@H]3[C@@H](CC=C4CC(O)CC[C@@]43CO)[C@@H]1CCC2O (stereo partly drawn) |  |  | rat, plasma | intraperitoneal, 20 mg/kg | AUC | 2370 ng·h/mL |
| COc1ccc(C(=O)Nc2ccccc2C(=O)N[C@H](C(=O)NC2CCCCC2)C(C)C)cc1 | MRC5 | cell growth or viability, MTT |  | 72 h | CC50 | 139 µM |
| Cc1nn(C)cc1-c1nc2c(N3CCN(Cc4ccc(Cl)cc4)CC3)c(Cl)cnc2[nH]1 | KIT (Homo sapiens, UniProt P10721) | binding, competition with immobilised ligand |  | 1 µM | remaining binding | 4.6% |
| C[N+]1=C2C=C(N)C(=O)c3[nH]cc(c32)CC1 | HEK293 | cell growth or viability, MTT |  | 72 h | CC50 | 0.78 µM |
| O=C(O)/C=C/c1ccc(O)c(O)c1 | HaCaT | cell growth or viability, MTT |  | 24 h | CC50 | > 250 µM |
| CC(=O)N[C@H](C(=O)N1C[C@H](O)C[C@H]1C(=O)NCc1ccc(-c2scnc2C)cc1)C(C)(C)C | SNU-C4 | cell growth or viability, ATP luminescence |  | 24 h | CC50 | > 30 µM |
| COc1cc(C=CC(=O)O)ccc1OC(C)=O | HaCaT | cell growth or viability, MTT |  | 24 h | CC50 | > 250 µM |
| C[N+]1=C2C=C(NCCc3ccc(O)cc3)C(=O)c3[nH]cc(c32)CC1 | HEK293 | cell growth or viability, MTT |  | 72 h | CC50 | 1 µM |
| Nc1ncc(-c2nc(N3CCOCC3)nc(N3CCOCC3)n2)c(C(F)F)n1 | MAPK4 (Homo sapiens, UniProt P31152) | binding, competition with immobilised ligand |  | 10 µM | remaining binding | 99% |
| CC(C)[C@H](NC(=O)c1ccccc1NC(=O)c1ccccn1)C(=O)N[C@H](CO)C(C)C | MRC5 | cell growth or viability, MTT |  | 72 h | CC50 | > 250 µM |
| COc1ncccc1-c1cnn2ccc(N3CCN(C(=O)OC(C)C)CC3)nc12 | CDKL1 (Homo sapiens, UniProt Q00532) | binding, competition with immobilised ligand |  | 1 µM | remaining binding | 100% |
| CC(C)(C)C(O)C(Oc1ccc(-c2ccccc2)cc1)n1cncn1 (stereo not drawn) | HEK293 | cell growth or viability, MTT |  | 24 h | CC50 | 100 µM |
| N#C[C@@]1(n2ccc(N)nc2=O)O[C@H](CO)[C@@H](O)[C@H]1O | Vero | cell growth or viability |  |  | CC50 | 98.7 µM |

Excerpt of the above:
| Structure (SMILES) | tested on | test | test system | setting | endpoint | result |
| --- | --- | --- | --- | --- | --- | --- |
| Cc1nn(C)cc1-c1nc2c(N3CCN(Cc4ccc(Cl)cc4)CC3)c(Cl)cnc2[nH]1 | KIT (Homo sapiens, UniProt P10721) | binding, competition with immobilised ligand |  | 1 µM | remaining binding | 4.6% |
| Nc1ncc(-c2nc(N3CCOCC3)nc(N3CCOCC3)n2)c(C(F)F)n1 | MAPK4 (Homo sapiens, UniProt P31152) | binding, competition with immobilised ligand |  | 10 µM | remaining binding | 99% |
